{"data": "Measured values gathered from unrelated publications", "note": "A part holds a random share of what one study measured. “And” joins repeats or separate records; there may be more than shown.", "chain of UniProt Q6ZWH5 (whole entry, looked up)": "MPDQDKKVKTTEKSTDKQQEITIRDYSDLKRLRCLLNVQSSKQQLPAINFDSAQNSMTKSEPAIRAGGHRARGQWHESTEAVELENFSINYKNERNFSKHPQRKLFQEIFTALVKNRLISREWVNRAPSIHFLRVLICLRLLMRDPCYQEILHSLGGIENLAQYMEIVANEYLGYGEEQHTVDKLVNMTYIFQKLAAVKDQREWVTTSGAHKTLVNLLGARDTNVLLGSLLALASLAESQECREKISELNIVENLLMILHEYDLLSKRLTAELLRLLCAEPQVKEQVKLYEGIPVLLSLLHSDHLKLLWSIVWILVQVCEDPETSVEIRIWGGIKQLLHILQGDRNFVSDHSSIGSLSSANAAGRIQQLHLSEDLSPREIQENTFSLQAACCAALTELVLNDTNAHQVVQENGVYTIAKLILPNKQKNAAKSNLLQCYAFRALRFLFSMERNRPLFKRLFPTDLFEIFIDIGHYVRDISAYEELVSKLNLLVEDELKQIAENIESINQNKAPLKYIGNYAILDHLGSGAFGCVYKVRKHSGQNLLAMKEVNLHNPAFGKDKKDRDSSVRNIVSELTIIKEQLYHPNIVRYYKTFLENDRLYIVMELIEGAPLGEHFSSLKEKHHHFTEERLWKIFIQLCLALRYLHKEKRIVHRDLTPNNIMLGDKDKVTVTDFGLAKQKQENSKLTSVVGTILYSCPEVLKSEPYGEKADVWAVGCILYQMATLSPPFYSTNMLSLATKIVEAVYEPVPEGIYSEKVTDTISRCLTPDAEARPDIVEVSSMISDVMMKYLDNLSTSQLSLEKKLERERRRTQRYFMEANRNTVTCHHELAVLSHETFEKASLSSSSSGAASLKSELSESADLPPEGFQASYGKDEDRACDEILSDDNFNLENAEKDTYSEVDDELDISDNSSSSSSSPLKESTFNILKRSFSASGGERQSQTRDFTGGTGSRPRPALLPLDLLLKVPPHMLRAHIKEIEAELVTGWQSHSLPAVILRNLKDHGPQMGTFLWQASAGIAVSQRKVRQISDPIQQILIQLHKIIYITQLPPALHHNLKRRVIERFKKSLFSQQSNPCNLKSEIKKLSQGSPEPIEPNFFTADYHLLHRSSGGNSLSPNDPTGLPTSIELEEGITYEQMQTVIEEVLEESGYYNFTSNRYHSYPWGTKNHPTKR", "chain of UniProt P49759 (whole entry, looked up)": "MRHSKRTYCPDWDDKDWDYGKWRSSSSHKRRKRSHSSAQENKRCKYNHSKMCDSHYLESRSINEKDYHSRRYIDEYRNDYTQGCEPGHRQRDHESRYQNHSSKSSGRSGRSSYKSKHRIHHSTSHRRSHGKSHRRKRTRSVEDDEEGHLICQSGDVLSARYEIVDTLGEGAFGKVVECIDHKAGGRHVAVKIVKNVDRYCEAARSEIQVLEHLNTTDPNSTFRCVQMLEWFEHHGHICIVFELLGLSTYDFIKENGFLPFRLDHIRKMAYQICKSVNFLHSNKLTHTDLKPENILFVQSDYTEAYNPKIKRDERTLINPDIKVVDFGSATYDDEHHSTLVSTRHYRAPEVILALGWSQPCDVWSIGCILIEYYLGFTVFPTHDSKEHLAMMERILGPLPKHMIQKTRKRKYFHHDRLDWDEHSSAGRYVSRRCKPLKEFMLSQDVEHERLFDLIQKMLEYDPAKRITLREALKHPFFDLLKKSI", "chain of UniProt P49761 (whole entry, looked up)": "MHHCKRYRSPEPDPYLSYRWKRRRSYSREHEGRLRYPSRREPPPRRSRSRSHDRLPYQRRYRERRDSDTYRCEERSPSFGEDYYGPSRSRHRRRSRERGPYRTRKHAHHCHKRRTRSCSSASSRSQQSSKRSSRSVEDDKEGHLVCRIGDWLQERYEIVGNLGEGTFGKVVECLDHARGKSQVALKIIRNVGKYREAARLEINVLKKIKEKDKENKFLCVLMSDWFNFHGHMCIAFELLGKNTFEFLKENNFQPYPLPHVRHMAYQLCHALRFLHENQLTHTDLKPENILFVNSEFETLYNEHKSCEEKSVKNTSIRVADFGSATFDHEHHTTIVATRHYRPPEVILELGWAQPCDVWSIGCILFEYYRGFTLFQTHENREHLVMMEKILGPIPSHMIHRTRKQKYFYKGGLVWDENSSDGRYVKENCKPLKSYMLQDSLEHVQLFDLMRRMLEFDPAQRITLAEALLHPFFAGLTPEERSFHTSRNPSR", "chain of UniProt P28482 (whole entry, looked up)": "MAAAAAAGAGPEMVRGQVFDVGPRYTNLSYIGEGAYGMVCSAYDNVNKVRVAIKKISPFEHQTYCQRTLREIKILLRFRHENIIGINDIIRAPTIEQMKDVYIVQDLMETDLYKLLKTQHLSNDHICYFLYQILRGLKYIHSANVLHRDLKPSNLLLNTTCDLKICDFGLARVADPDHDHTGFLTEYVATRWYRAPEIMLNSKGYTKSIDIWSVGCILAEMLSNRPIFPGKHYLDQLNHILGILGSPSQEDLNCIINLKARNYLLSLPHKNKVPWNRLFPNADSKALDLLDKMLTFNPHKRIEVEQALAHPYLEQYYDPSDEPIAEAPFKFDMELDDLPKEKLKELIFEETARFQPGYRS"}
{"data": "Study 1", "Structure (SMILES)": "Cc1c(NC(=O)c2cc(C(N)=O)nc3cc(F)ccc23)c(C(F)(F)F)nn1Cc1ccc(C(C)(C)C)cc1", "observed": "cell-free assay", "method": "competition with immobilised ligand", "tested at": "1 µM"}
{"target": "CLK1 (Homo sapiens, UniProt P49759)", "remaining binding [%]": 62}
{"target": "Tyrosine-protein kinase ABL1, phosphorylated (ABL1, Homo sapiens, UniProt P00519, M351T)", "remaining binding [%]": 100}
{"target": "EGFR (Homo sapiens, UniProt P00533, G719S)", "remaining binding [%]": 78}
{"target": "NEK11 (Homo sapiens, UniProt Q8NG66)", "remaining binding [%]": 100}
{"target": "DDR1 (Homo sapiens, UniProt Q08345)", "remaining binding [%]": 95}
{"target": "TNK2 (Homo sapiens, UniProt Q07912)", "remaining binding [%]": 100}
{"target": "SRMS (Homo sapiens, UniProt Q9H3Y6)", "remaining binding [%]": 100}
{"target": "TAOK1 (Homo sapiens, UniProt Q7L7X3)", "remaining binding [%]": 100}
{"target": "MAP2K7 (Homo sapiens, UniProt O14733)", "remaining binding [%]": 100}
{"target": "RIPK1 (Homo sapiens, UniProt Q13546)", "remaining binding [%]": 100}
{"target": "NEK10 (Homo sapiens, UniProt Q6ZWH5)", "remaining binding [%]": 100}
{"target": "FGFR2 (Homo sapiens, UniProt P21802)", "remaining binding [%]": 100}
{"data": "Study 2", "Compound": "c1ccc(-c2n[nH]c3c2oc2ccccc23)cc1", "observed": "enzyme activity", "action": "inhibitor", "tested at": "0.5 µM", "baseline": "control"}
{"target": "MARK4 (Homo sapiens, UniProt Q96L34)", "remaining activity": "98.2%"}
{"target": "RPS6KA4 (Homo sapiens, UniProt O75676)", "remaining activity": "90.2%"}
{"target": "CLK3 (Homo sapiens, UniProt P49761)", "remaining activity": "91%"}
{"target": "MET (Homo sapiens, UniProt P08581)", "remaining activity": "98.4%"}
{"target": "MAPK1 (Homo sapiens, UniProt P28482)", "remaining activity": "118%"}
{"target": "Cyclin-dependent kinase 9, with cyclin K (CDK9, Homo sapiens, UniProt P50750)", "remaining activity": "86.2%"}
{"target": "PNCK (Homo sapiens, UniProt Q6P2M8)", "remaining activity": "98.6%"}
{"target": "CAMK4 (Homo sapiens, UniProt Q16566)", "remaining activity": "93.7%"}
{"target": "MAPK11 (Homo sapiens, UniProt Q15759)", "remaining activity": "95.7%"}
{"target": "DCLK2 (Homo sapiens, UniProt Q8N568)", "remaining activity": "90.2%"}
{"target": "Cyclin-dependent kinase 1, with cyclin A (CDK1, Homo sapiens, UniProt P06493)", "remaining activity": "94.1%"}
{"target": "ROCK1 (Homo sapiens, UniProt Q13464)", "remaining activity": "99.1%"}
{"target": "TXK (Homo sapiens, UniProt P42681)", "remaining activity": "81.5%"}
{"target": "DDR2 (Homo sapiens, UniProt Q16832)", "remaining activity": "96%"}
{"data": "Study 3", "target": "DNA polymerase theta, ATPase domain (POLQ, Homo sapiens, UniProt O75417)", "observed": "enzyme activity", "action": "inhibitor", "tested at": "77 µM", "baseline": "untreated", "chain of UniProt O75417 (whole entry, unmodified, looked up)": "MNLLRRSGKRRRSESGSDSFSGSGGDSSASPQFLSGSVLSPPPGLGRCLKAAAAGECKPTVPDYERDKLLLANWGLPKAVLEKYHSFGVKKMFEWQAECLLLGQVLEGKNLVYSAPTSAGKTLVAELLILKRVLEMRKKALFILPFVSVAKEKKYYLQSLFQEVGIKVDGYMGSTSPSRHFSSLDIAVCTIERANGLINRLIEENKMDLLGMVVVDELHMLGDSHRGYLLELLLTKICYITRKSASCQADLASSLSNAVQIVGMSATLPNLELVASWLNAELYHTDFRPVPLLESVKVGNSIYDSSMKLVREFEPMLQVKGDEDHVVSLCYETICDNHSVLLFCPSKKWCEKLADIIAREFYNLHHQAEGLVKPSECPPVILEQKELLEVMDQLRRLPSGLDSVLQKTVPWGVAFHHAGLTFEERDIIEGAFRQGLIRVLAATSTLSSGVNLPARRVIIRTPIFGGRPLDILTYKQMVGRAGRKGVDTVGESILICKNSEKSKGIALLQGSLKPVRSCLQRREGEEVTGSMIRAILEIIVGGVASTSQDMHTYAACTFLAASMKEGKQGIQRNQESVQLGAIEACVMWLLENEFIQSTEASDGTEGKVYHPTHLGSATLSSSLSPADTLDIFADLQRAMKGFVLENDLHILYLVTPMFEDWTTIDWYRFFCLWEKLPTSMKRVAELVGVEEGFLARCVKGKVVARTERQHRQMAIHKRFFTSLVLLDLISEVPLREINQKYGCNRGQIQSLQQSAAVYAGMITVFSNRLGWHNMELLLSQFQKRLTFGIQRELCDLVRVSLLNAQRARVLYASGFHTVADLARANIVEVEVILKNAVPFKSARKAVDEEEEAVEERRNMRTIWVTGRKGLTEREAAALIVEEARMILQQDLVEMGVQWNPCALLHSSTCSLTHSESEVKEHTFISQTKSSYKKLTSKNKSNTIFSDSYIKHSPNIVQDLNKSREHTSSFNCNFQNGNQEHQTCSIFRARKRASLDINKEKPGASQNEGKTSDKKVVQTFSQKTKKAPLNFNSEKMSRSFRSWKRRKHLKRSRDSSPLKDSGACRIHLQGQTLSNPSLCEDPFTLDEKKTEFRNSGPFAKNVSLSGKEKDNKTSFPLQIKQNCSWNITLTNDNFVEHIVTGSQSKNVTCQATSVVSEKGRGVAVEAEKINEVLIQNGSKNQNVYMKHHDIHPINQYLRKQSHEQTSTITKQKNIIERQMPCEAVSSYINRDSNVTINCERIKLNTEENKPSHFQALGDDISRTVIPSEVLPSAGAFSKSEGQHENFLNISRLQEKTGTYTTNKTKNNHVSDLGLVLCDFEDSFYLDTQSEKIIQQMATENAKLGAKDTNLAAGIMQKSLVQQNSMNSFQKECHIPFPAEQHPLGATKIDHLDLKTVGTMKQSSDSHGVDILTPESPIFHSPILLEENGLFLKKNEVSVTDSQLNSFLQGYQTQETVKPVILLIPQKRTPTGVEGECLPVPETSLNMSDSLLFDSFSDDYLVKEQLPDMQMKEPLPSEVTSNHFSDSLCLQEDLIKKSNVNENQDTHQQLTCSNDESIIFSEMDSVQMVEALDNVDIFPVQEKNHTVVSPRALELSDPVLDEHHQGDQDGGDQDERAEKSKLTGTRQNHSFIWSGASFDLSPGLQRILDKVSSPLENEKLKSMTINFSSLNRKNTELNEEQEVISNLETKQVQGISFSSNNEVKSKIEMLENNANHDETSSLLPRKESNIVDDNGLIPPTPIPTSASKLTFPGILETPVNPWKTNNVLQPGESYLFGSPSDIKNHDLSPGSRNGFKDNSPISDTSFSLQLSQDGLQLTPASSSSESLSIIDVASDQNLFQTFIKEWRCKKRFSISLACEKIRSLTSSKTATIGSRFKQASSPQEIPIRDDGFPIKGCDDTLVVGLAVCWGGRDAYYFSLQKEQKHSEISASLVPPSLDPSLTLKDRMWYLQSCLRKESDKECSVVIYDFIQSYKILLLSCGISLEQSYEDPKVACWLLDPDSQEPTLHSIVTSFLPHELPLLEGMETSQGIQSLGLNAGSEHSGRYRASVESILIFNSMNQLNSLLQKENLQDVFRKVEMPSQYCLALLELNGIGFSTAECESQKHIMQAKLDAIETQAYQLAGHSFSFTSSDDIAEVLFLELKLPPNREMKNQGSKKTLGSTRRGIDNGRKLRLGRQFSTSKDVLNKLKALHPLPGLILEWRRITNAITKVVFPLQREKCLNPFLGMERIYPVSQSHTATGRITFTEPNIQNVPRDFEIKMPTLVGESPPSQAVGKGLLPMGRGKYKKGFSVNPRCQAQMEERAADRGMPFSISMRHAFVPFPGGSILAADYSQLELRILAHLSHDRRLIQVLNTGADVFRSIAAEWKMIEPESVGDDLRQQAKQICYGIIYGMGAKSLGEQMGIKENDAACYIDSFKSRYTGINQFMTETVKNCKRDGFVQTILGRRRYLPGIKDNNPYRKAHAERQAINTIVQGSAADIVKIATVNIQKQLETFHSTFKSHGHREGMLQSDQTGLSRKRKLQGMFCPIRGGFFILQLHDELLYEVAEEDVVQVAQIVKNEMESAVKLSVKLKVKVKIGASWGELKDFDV"}
{"Compound": "Cc1cc2c(cc1S(N)(=O)=O)S(=O)(=O)CCC2", "remaining activity": "98.2%"}
{"Compound": "CCCN(CCc1cccs1)[C@H]1CCc2c(O)cccc2C1", "remaining activity": "99%"}
{"Compound": "Nc1ccc(O)c(C(=O)O)c1", "remaining activity": "92.2% and 87.8%"}
{"Compound": "CN(C)C/C=C/C(=O)Nc1cc2c(Nc3ccc(F)c(Cl)c3)ncnc2cc1O[C@H]1CCOC1", "remaining activity": "75.9%"}
{"Compound": "Cc1onc(-c2c(F)cccc2Cl)c1C(=O)N[C@@H]1C(=O)N2[C@@H]1SC(C)(C)[C@@H]2C(=O)O", "remaining activity": "97.9%"}
{"Compound": "COc1cc2c(cc1-c1c(C)noc1C)ncc1[nH]c(=O)n([C@H](C)c3ccccn3)c12", "remaining activity": "98%"}
{"Compound": "CCCCOc1c(C(=O)c2c(F)cc(C)cc2F)c[nH]c2nncc1-2", "remaining activity": "100%"}
{"data": "Study 4", "organism": "Plasmodium berghei", "action": "inhibitor", "cell line": "Huh-7", "strain": "GFP-expressing, liver stage", "tested at": "10 µM", "time": "24 h", "baseline": "untreated control"}
{"SMILES": "CO[C@@H]1[C@@H](OC(N)=O)[C@@H](O)[C@H](Oc2ccc3c(O)c(NC(=O)c4ccc(O)c(CC=C(C)C)c4)c(=O)oc3c2C)OC1(C)C", "infection rate": "78.4%"}
{"SMILES": "Cc1ccnc(NS(=O)(=O)c2ccc(N)cc2)n1", "infection rate": "105%"}
{"SMILES": "Clc1ccccc1CN1CCc2sccc2C1", "infection rate": "95.4%"}
{"SMILES": "CCCCNc1ccc(C(=O)OCCN(C)C)cc1", "infection rate": "103%"}
{"SMILES": "CCS(=O)(=O)CCn1c([N+](=O)[O-])cnc1C", "infection rate": "94.2%"}
{"SMILES": "O=C(O)CCc1nc(-c2ccccc2)c(-c2ccccc2)o1", "infection rate": "101%"}
{"SMILES": "CC(C)(CO)[C@@H](O)C(=O)NCCC(=O)O", "infection rate": "97.5%"}
{"note": "Some of these lines once more (study 3):"}
{"Compound": "Cc1onc(-c2c(F)cccc2Cl)c1C(=O)N[C@@H]1C(=O)N2[C@@H]1SC(C)(C)[C@@H]2C(=O)O", "remaining activity": "97.9%"}
{"Compound": "COc1cc2c(cc1-c1c(C)noc1C)ncc1[nH]c(=O)n([C@H](C)c3ccccn3)c12", "remaining activity": "98%"}
